# Results gathered from unrelated publications.
# A part holds a random share of what one study measured.

# Sample 1 — technique: protein-binding microarray; form: double-stranded DNA, one strand shown; sample: in vitro; tested at: 250 nM; setting: 60-bp whole probe; added: salmon DNA 0.4 mg/ml; baseline: random background probes; reading: higher = stronger binding; all sequences stand within: GCCTAGCAC … GTCTTGATTCGCTTGACGCTGCTG
# Target: Interferon regulatory factor 7, full length, phosphomimetic (IRF7, Homo sapiens, UniProt Q92985, residues 1-503, S101K/S471D/S472D/S475D/S476D/S477D/S483D/S484D/S487D)
# UniProt Q92985, sequence (whole entry, unmodified, looked up): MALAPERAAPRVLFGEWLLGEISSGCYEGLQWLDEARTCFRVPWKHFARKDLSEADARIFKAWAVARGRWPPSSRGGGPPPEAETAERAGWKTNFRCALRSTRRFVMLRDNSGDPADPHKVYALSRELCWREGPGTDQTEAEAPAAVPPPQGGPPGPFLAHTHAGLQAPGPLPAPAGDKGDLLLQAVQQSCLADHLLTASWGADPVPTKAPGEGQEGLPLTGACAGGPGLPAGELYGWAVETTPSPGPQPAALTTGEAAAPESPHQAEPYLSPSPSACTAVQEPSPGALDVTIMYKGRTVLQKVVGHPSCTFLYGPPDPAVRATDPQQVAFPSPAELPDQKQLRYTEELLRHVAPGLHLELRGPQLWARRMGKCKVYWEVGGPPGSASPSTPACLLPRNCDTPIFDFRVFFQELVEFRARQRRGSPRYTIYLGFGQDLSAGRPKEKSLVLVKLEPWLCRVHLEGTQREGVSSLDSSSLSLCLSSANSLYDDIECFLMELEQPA
Oligonucleotide,log fluorescence
TCACTGATCCATTTTGGACTGTGCTAG,-0.304 z-score
CCGGGGGGCACAGGGTGAGGGTGCTAG,3.24 z-score
GACGGACTGGGTTTCGAGACGTGCTAG,2.49 z-score
GACGGACTGCGACTGGGGACGTGCTAG,-0.48 z-score
GACGGACTGGATTTTCGGGACGTGCTA,-0.731 z-score

# Sample 2 — technique: protein-binding microarray; form: double-stranded DNA, one strand shown; sample: in vitro; tested at: not given; reading: higher = stronger binding
# Target: Max-binding protein MNT, bHLH-zipper, MAX partner unstated (MNT, Homo sapiens, UniProt Q99583, residues 220-300)
# Setting: k-mer, scored over probes, only values ≥0.25
# Target sequence (chain): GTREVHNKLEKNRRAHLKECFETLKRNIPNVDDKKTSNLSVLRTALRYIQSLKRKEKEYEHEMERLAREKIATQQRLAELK
Oligonucleotide,E-score
AGGCGGGG,0.319
GTGTCAAA,0.255
CCCCGGGA,0.251
CGTGTTAG,0.382

# Sample 3 — technique: protein binding microarray; form: double-stranded DNA, one strand shown; sample: in vitro; tested at: not given; baseline: not given; reading: higher = stronger binding
# Target: Histone acetyltransferase KAT6A, winged helix 2, GST fusion (KAT6A, Homo sapiens, UniProt Q92794, residues 85-181)
# Setting: 8-mer, flanks averaged, mean of 2 arrays, mostly near background
# Residues (chain): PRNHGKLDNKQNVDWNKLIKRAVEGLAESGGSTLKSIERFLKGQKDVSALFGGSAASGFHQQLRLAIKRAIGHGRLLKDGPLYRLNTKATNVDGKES
Oligonucleotide,E-score
AAGTTAGG,0.0876
CCCAATAA,-0.222
CATCTTAA,0.0285
ATCTCGGC,0.229
AGGCTGAT,-0.0533

# Further values, each from its own experiment
Substance,target,test,test system,setting,how to read,measurement,result
"PhoQ, residues 284 288 289 292 302 303 SSYNSA","PhoP, residues 12 14 15 18 19 LYHSL (Escherichia coli, UniProt P23836)","Sort-seq, item: YFP reporter",E. coli,"PhoQ-PhoP variant library, added: 10 µM Mg2+","baseline: high Mg2+ state, higher = stronger signaling",fold induction,26.2

# Excerpt of the above (sample 1):
Oligonucleotide,log fluorescence
CCGGGGGGCACAGGGTGAGGGTGCTAG,3.24 z-score
